# Results from different studies.
# A part holds a random share of what one study measured. Substitutions count along the parent as printed.

# Sample 1
# Target: Sal-like protein 4, full length isoform B (SALL4, Homo sapiens, UniProt Q9UJQ4-2, residues 1-616)
# Method: universal PBM
# Form: double-stranded DNA, one strand shown
# Sample: in vitro
# Concentration: not given
# Setting: 8-mer, flanks averaged, mean of replicates
# Reading: higher = stronger binding
Strand,E-score
ACCTCTAG,0.0683
CCACAAAG,-0.0105
AGACAGAT,0.156
ACAAGCGC,-0.193
ACTTCATG,-0.132

# Sample 2
# Target: RING finger protein unkempt homolog, zinc fingers 1-6, GST-SBP tag (UNK, Homo sapiens, UniProt Q9C0B0, residues 30-357)
# Sequence of UniProt Q9C0B0 (30-357, looked up): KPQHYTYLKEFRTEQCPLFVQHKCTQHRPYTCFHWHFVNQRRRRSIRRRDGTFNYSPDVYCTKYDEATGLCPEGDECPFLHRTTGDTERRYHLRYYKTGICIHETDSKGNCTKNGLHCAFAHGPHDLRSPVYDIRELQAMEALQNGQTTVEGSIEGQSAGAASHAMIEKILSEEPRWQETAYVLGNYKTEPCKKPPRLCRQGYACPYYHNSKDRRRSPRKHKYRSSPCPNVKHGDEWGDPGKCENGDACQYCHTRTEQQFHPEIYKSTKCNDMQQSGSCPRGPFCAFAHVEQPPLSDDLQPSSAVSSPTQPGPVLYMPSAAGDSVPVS
# Method: RNA Bind-n-Seq
# Form: RNA
# Sample: in vitro
# Concentration: not given
# Setting: RNA with constant flanks, ends assumed
# Baseline: input RNA pool
# Reading: higher = stronger binding
Strand,bound/input enrichment [ratio]
GGGAGUUCUACAGUCCGACGAUCACUUCUUUGAAAAGUCCCAUCAAACAAAUAGCAUGGGAGCAAAAACAGAGGGGCUUUAUUUCCGAUAUGUCUAAUUUUAAGCCUGAAAAGGUAAAACAAAGGUCAUUGUCAGAAGCAAUUCAACAGAGGAUUGAGCAUCA,0.176
GGGAGUUCUACAGUCCGACGAUCGAAGCCAUGAGUUAUGCUGAGGUCAUGAGGCUGGUGAAAGGCAUGAACUUCUCAGUGGCCGUGUUCGACACAGCACCCACCGGCCAUACACUCAGGCUCCUGAACUUCCCGACCAUCGUGCAACAGAGGAUUGAGCAUCA,0.116
GGGAGUUCUACAGUCCGACGAUCUCCUUCCCACAUCACAGGGCUACCUUGAGACUUUCUGAGAAGUUUAUUCUUCUCCUUAUUCUCCGUGCCUUCAUCACUCUGUGUUUUGGGGCAUUCUUUUUCCUUCCAGACUCUUCAAAACAACAGAGGAUUGAGCAUCA,0.334
GGGAGUUCUACAGUCCGACGAUCAAUGAUGUACAUUACUGUGAAUUUUUAUACCACUCAUUUUUAAAAGGGCUGUCUUUUCAUUUCCGUUUUCCAUACUGUGGUGGUGUACACAGGAUAGAACACCCUUUUUUAAAACACAGUCAACAGAGGAUUGAGCAUCA,0.216

# Sample 3
# Target: CCNE2, cyclin fold, Cln2 fusion (human)
# Method: yeast growth competition, sequencing
# Sample: yeast
# Setting: weak parent motif
# Baseline: not given
# Reading: higher = stronger binding
# Starting sequence: CDC6 docking peptide (human); TLKGRRLVFDNQL
Substitution,normalised enrichment score
L7I,0.0385
L13I,1.12
D10Y,1.02
K3E,-0.192

# Mixed results
Molecule,target,assay,test system,setting,how to read,quantity,value
"PhoQ, residues 284 288 289 292 302 303 HSSMNL","PhoP, residues 12 14 15 18 19 LYHSL (Escherichia coli, UniProt P23836)","Sort-seq, measured: YFP reporter",E. coli,"PhoQ-PhoP variant library, with: 10 µM Mg2+","baseline: high Mg2+ state, higher = stronger signaling",fold induction,16.6

# Excerpt of the above (sample 1):
Strand,E-score
ACAAGCGC,-0.193
